Measurements of several laboratories.
A part holds a random share of what one study measured. Numbers after ± are the reported error.
Sequence of UniProt P34914 (whole entry, looked up): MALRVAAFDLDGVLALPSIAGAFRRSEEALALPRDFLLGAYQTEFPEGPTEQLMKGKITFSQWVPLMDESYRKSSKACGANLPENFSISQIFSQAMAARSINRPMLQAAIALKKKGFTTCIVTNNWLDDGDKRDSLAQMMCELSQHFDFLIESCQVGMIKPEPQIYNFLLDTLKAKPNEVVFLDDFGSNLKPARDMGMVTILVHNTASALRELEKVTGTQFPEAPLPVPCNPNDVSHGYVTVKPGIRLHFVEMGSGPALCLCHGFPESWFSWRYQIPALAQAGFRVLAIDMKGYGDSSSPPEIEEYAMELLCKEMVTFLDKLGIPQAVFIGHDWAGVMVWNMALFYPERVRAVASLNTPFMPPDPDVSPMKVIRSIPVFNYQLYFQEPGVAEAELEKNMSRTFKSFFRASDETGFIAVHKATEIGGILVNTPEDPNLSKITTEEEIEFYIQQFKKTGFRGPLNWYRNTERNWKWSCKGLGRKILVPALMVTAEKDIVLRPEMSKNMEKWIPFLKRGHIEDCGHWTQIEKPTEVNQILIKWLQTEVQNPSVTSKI
Sequence of UniProt Q9NSI6 (whole entry, unmodified, looked up): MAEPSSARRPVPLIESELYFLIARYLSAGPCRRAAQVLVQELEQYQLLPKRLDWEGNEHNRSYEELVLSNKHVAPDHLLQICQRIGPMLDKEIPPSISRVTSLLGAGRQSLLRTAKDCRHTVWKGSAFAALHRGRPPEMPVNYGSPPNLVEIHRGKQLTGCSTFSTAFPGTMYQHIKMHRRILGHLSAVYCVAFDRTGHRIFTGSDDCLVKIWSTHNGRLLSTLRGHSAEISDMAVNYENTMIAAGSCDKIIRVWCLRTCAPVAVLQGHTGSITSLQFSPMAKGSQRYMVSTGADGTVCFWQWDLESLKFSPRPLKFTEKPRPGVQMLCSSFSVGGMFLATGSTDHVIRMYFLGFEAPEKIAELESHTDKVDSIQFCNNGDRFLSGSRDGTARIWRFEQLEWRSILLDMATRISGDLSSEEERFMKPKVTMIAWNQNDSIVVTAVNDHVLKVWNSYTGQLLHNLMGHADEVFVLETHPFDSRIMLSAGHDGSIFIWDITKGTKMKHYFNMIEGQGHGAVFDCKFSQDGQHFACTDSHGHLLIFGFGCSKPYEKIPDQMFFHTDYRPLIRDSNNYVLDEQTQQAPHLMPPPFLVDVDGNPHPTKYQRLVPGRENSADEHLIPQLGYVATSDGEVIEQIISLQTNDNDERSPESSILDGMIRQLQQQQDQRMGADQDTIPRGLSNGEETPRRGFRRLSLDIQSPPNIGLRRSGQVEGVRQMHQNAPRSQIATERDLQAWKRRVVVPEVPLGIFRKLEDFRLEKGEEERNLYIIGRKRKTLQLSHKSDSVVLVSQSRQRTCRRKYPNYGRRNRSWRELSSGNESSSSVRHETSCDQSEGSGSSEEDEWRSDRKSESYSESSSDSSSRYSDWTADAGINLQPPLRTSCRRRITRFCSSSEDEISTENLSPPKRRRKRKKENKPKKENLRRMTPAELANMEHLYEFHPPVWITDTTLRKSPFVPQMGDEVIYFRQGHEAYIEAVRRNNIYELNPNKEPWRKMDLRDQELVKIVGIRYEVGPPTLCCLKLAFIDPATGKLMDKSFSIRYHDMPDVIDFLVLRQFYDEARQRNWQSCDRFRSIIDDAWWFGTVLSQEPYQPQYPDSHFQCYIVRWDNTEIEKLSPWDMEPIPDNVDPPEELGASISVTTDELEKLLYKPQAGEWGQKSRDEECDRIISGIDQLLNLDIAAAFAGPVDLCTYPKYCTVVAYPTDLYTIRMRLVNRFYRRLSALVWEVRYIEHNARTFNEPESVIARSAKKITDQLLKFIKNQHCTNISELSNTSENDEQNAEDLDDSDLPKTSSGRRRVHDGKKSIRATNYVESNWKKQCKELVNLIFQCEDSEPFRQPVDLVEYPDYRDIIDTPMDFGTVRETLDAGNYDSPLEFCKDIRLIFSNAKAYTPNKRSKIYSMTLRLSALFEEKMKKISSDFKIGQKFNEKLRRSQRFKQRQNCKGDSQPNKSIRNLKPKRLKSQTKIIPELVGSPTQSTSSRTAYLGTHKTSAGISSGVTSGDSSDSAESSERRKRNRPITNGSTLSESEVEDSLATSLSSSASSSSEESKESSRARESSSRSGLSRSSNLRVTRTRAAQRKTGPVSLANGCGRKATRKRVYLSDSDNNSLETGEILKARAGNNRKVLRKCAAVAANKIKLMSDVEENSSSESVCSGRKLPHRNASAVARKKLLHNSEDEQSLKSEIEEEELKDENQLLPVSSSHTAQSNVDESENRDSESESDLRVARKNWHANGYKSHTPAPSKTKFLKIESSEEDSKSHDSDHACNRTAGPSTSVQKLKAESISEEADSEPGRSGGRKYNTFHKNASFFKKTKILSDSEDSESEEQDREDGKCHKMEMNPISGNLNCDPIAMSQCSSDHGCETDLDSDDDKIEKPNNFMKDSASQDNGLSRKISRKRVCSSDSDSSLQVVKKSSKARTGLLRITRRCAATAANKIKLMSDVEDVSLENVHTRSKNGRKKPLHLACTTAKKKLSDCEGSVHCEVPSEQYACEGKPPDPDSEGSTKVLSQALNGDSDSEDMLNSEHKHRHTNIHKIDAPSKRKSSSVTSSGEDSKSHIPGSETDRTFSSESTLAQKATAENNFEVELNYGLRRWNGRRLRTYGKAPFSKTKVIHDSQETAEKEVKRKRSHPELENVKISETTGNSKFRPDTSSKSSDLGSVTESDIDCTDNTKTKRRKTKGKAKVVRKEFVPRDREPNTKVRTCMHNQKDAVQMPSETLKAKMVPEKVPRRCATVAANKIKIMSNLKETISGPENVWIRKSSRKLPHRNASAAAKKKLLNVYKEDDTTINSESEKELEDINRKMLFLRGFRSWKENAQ

Sample 1
SMILES: Cc1cc(OCc2nnc(SC3CCCC3)n2-c2cccnc2)ccc1-c1ccc(S(C)(=O)=O)cc1
cell line | CC50
NCI-H460 | 22.2 µM
MOLT-4 | > 100 µM
T47D | > 100 µM

Single results of other studies
SMILES | tested on | test | system | conditions | quantity | result
CC[C@@H]1C(=O)N(C)c2cnc(Nc3ccc(C(=O)NC4CCN(C)CC4)cc3OC)nc2N1C1CCCC1 | Bromodomain and WD repeat-containing protein 1, BD2 (BRWD1, Homo sapiens, UniProt Q9NSI6) | thermal stabilisation, thermal shift |  | 10 µM | ΔTm | -0.53 ± 0.11 °C
Cc1ccccc1S(=O)(=O)Nc1c(N2CCC(NC(=O)Nc3ccc(C#N)cc3Cl)CC2)c(=O)c1=O | Ephx2 (Mus musculus, UniProt P34914) |  |  |  | IC50 | 0.583 ± 0.0626 µM
N#Cc1ccc(-c2csc(CNC(=O)C34CC(CN(C(=O)COCCF)C3)C4)n2)cc1 |  |  | human, both sexes, liver microsomes | 0.5 µM | CLint scaled | < 3.4 mL/min/kg

Repeated from above (single results of other studies):
SMILES | tested on | test | system | conditions | quantity | result
Cc1ccccc1S(=O)(=O)Nc1c(N2CCC(NC(=O)Nc3ccc(C#N)cc3Cl)CC2)c(=O)c1=O | Ephx2 (Mus musculus, UniProt P34914) |  |  |  | IC50 | 0.583 ± 0.0626 µM
